Published values collected from several papers.
Each line is one published result; not all experiments were run side by side. ± marks the error that the study gave.

SMILES | cell line | assay | conditions | how to read | quantity | result
O=C(c1ccncc1)N1N=C2/C(=C/c3ccc4ccccc4c3)CCCC2C1c1ccc2ccccc2c1 (stereo not shown) | human erythrocytes | HRBC membrane stabilization | concentration not given | – | membrane protection | 86.2%
O=Cc1c(O)ccc2ccccc12 | HUVEC | RNA sequencing, item: ATP6V0D2 | 75 µM, 24 h | baseline: DMSO | log2 fold change | 5.48
COC(=O)[C@@H]1[C@@H](OC)[C@H](OC(=O)c2cc(OC)c(OC)c(OC)c2)C[C@@H]2CN3CC[C@]4(O[C@@H]3C(=O)[C@@H]21)C(=O)Nc1cc(OC)c(-c2ccc(C(F)(F)F)cc2)cc14 | RS4;11 | annexin V/PI flow cytometry | 10 µM, 72 h | – | late apoptotic cells | 82.6 ± 8.8%
O=[N+]([O-])/C(Br)=C/c1ccco1 | KB | – | mean of three Leishmania species | baseline: KB CC50 over Leishmania IC50 | selectivity index | 8.7
COc1cc(CNC(=O)C[C@H](C)CCC=C(C)C)ccc1OCc1cn(-c2ccc([N+](=O)[O-])cc2)nn1 | UACC-62 melanoma cells | SRB | 10 µM, 48 h | – | growth percent | 53.5%
Cc1cc([C@H](C(=O)N2C[C@H](O)C[C@H]2C(=O)N[C@@H](CC(=O)N2CCC(N3CCC(C#Cc4ccc(C(=O)N[C@H]5C(C)(C)[C@H](Oc6ccc(C#N)c(Cl)c6)C5(C)C)cc4)CC3)CC2)c2ccc(-c3scnc3C)cc2)C(C)C)on1 | MDA-MB-453 | – | 1 µM, 24 h, added: 1 nM R1881 | – | AR and FoxA1 expression | inhibited
CCOC(=O)COc1cc(Oc2ccc(S(=O)(=O)c3ccc(OC(C)C)cc3)cc2)c([N+](=O)[O-])cc1C(=O)C(Cl)Cl | NCI-H1650 | cell growth or viability, MTT | 2.5 µM | – | inhibition | > 95%
COc1cc(CNC(=O)C[C@H](C)CCC=C(C)C)ccc1OCc1cn(-c2cccc(Cl)c2)nn1 | NCI-H226 | SRB | 10 µM, 48 h | – | growth percent | 54.2%
CC/C=C\C/C=C\C/C=C\C/C=C\C/C=C\C/C=C\CCC(=O)Nc1ccn(C2OC(CO)C(O)C2(F)F)c(=O)n1 (stereo not shown) | SNB-75 | cell growth or viability, SRB | – | – | GI50 | 401 nM
COc1ccc([C@@H]2CC(=O)c3c(O)cc(O[C@@H]4O[C@H](CO[C@@H]5O[C@@H](C)[C@H](O)[C@@H](O)[C@H]5O)[C@@H](O)[C@H](O)[C@H]4O)cc3O2)cc1O | A549 | cell growth or viability, MTS | 100 µg/mL, 72 h | – | viability | 47.1%
COc1ccc(NC(=O)COc2ccc(/C=C/C(C)=N/O)cc2OC)cc1 | SH-SY5Y | flow cytometry | 20 µM, added: amyloid beta 10 µM | – | IL-6 expressing cells | 23.2%
Cc1nc(C)c(C=[N+]([O-])C(C)(C)C)nc1C | N2a | luciferase reporter, item: PGC-1α | 300 µM, added: MPP+ | – | promoter activity | 84.3%
O=C1C(=NN=c2[nH]ccs2)c2cc(Cl)ccc2N1CCn1ncc2c(=O)[nH]cnc21 | BALB/3T3 and HepG2 | cell growth | – | baseline: IC50 BALB/3T3 over HepG2 | selectivity ratio | 2.8
Cc1ccc(C(C)C)cc1.Cc1ncc(CO)c(C=NNC2=Nc3ccccc3-c3[nH]c4ccc(Br)cc4c3C2)c1O.[Cl-].[Cl][Ru+] | SW480 | annexin V/PI flow cytometry | 20 µM, early plus late apoptosis | – | apoptotic cells | 61%
CCC(=O)N(C)c1ccc(Cl)c(Cl)c1 | DBA/1 mouse splenocyte T cells | – | 50 to 200 µM, added: anti-CD3/CD28 | – | IL-2 secretion | decreased
COc1cc2c(OC3OCC(OC)C(OC)C3OC(=O)c3ccc(Br)cc3)c3c(c(-c4ccc5c(c4)OCO5)c2cc1OC)C(=O)OC3 (stereo not shown) | FaDu | western blot, item: mature cathepsin D | 0.1, 1, 2 µM, 36 h, added: bafilomycin A1 0.1 µM | baseline: DMSO | protein level | decreased
COc1ccc2c(c1CC=C(C)C)O[C@H]1c3cc4c(cc3OC[C@@]21O)OC(C)(C)C=C4 | 3T3-L1 adipocytes | activator | up to 100 µM | – | glucose consumption | inactive

SMILES | cell line | assay | conditions | how to read | quantity | result
C[C@H](C(=O)Nc1ccc(Cn2cc(C(F)(F)F)ccc2=O)cc1)N(C)C | NIH3T3 | cell growth or viability, CCK-8 | 500 µM | – | inhibition | 37.5%
CCCCCCCCCCCCCCCC(=O)OCC(CSC[C@H](N)C(=O)N[C@@H](CO)C(=O)N[C@@H](CCCCN)C(=O)N[C@@H](CCCCN)C(=O)N[C@@H](CCCCN)C(=O)N[C@@H](CCCCN)C(=O)NCCCCCC(=O)N[C@@H](CCCCN)C(=O)N[C@@H](CC(C)C)C(=O)N[C@H](C(=O)N[C@@H](Cc1ccccc1)C(=O)N[C@@H](Cc1ccccc1)C(=O)N[C@@H](Cc1ccc2ccccc2c1)C(=O)O)C(C)C)OC(=O)CCCCCCCCCCCCCCC (stereo partly shown) | BV-2 | RNA-seq, item: phagocytosis genes | 1.0 µM | – | gene expression | increased
O=C(OCc1cccc(O)c1O)c1ccc(O)c(CO)c1 | p47phox knockout mouse CMEC | lucigenin chemiluminescence | 5 µM, 24 h | – | superoxide production | no effect
Cc1cccc(O[C@H]2CCC[C@@H](C(C)CNCc3ccncc3)C2)c1 (relative stereo) | primary mouse cortical neurons | – | concentration not given | – | decrease in ATP level | ~20%
CC(C)=CCc1cc(-c2coc3cc(O)c(CC=C(C)C)c(O)c3c2=O)ccc1O | 3T3-L1 adipocytes | activator | up to 100 µM | – | glucose consumption | inactive
CC(=C(c1ccc(O)cc1)c1ccc(Cl)cc1)c1ccc(Cl)cc1 | SF-295 | cell growth or viability, SRB | – | – | GI50 | 690 nM
CC(=O)OC[C@H]1O[C@@H](Sc2sc(C(=O)c3ccc(Br)cc3)c(N)c2-c2nc3ccccc3s2)[C@H](OC(C)=O)[C@@H](OC(C)=O)[C@H]1OC(C)=O | SNB-75 | SRB | 10 µM, 48 h | baseline: untreated | growth | 74.5%
O=C1Nc2ccc(F)cc2C1=Cc1c(Cl)[nH]c2c1ccc1ccccc12 | NCI-60 panel mean | – | 48 h | – | TGI | 8910 nM
COc1cc(CNC(=O)C[C@H](C)CCC=C(C)C)ccc1OCc1cn(-c2cccc(C(F)(F)F)c2)nn1 | NCI-H226 | SRB | 10 µM, 48 h | – | growth percent | 72.3%
NS(=O)(=O)NCC(F)(F)c1ccccc1F | rat hippocampal neurons | neuroprotection | medium without antioxidants, added: glutamate 30 µM for 5 min | – | EC50 | 0.07 nM
O=C1Nc2ccccc2/C1=N\Nc1nnc2n1N=C(c1ccc(Cl)cc1)CS2 | NCI-60 cell line panel | – | 10 µM, growth inhibition above 10% | – | number of sensitive cell lines | 30
C[C@H](CC(=O)C[C@@H](C)[C@H]1C[C@H](O)[C@@]2(C)C3=C(C(=O)C[C@]12C)[C@@]1(C)CCC(=O)C(C)(C)[C@@H]1C[C@@H]3O)C(=O)O | 3T3-L1 adipocytes | – | 12.5 µg/mL | – | glucose consumption | 11.7 ± 0.34 mmol/L
N=C(N)NCCC[C@H](N)C(=O)NCC(=O)N[C@@H](CC(=O)O)C(=O)N[C@@H](CO)C(=O)O | BHK | cell spreading on fibronectin | up to 1.0 mg/mL, 60 min, added: fibronectin 2 µg/mL coat | – | inhibition | inhibited
COc1cc(CNC(=O)C[C@H](C)CCC=C(C)C)ccc1O | NCI-H226 | SRB | 10 µM, 48 h | – | growth percent | 101%
CCCCCCCCCCCCCC[C@@H](O)[C@@H](O)[C@H](CO[C@H]1O[C@H](CO)[C@H](O)[C@H](O)[C@H]1O)NC(=O)CCCCCCc1ccccc1 | human Vα24+ NKT cells | – | 10 ng/mL, 24 h, HeLa-CD1d co-culture, unit not given | baseline: α-GalCer | IFN-γ secretion | 1.28 ± 0.08
COc1ccc(-c2ocnc2-c2cc(Br)c(OC)c(OC)c2)cc1OCCCC(=O)NO | HepG2 and Huh-7 | western blot, item: GLUT2 | concentration not given | – | protein level | no effect
COc1cc(CNC(=O)C[C@H](C)CCC=C(C)C)ccc1OCc1cn(-c2ccccc2F)nn1 | NCI-H226 | SRB | 10 µM, 48 h | – | growth percent | 73.3%

Excerpt of the above:
SMILES | cell line | assay | conditions | how to read | quantity | result
NS(=O)(=O)NCC(F)(F)c1ccccc1F | rat hippocampal neurons | neuroprotection | medium without antioxidants, added: glutamate 30 µM for 5 min | – | EC50 | 0.07 nM
O=C1Nc2ccccc2/C1=N\Nc1nnc2n1N=C(c1ccc(Cl)cc1)CS2 | NCI-60 cell line panel | – | 10 µM, growth inhibition above 10% | – | number of sensitive cell lines | 30
C[C@H](CC(=O)C[C@@H](C)[C@H]1C[C@H](O)[C@@]2(C)C3=C(C(=O)C[C@]12C)[C@@]1(C)CCC(=O)C(C)(C)[C@@H]1C[C@@H]3O)C(=O)O | 3T3-L1 adipocytes | – | 12.5 µg/mL | – | glucose consumption | 11.7 ± 0.34 mmol/L
N=C(N)NCCC[C@H](N)C(=O)NCC(=O)N[C@@H](CC(=O)O)C(=O)N[C@@H](CO)C(=O)O | BHK | cell spreading on fibronectin | up to 1.0 mg/mL, 60 min, added: fibronectin 2 µg/mL coat | – | inhibition | inhibited
COc1cc(CNC(=O)C[C@H](C)CCC=C(C)C)ccc1O | NCI-H226 | SRB | 10 µM, 48 h | – | growth percent | 101%
